Results of several laboratories.
Lines come from different studies, so protocols differ. ± marks the error that the study gave.
Neuronal acetylcholine receptor; alpha9/alpha10: Neuronal acetylcholine receptor; alpha9/alpha10 (Homo sapiens, UniProt Q9GZZ6+Q9UGM1)
UniProt Q9GZZ6, sequence (whole entry, looked up): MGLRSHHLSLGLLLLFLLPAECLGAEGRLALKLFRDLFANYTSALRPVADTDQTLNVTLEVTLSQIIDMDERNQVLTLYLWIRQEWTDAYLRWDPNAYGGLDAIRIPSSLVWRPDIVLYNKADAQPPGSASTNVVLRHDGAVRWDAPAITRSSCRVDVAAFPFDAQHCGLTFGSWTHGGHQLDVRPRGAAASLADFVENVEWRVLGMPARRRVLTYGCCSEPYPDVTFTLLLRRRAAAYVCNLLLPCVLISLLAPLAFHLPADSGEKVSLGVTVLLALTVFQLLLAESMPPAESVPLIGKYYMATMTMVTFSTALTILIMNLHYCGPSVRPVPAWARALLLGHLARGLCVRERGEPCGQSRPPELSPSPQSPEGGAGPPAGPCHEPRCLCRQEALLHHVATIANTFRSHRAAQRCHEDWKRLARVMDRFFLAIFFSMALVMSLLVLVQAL
UniProt Q9UGM1, sequence (whole entry, looked up): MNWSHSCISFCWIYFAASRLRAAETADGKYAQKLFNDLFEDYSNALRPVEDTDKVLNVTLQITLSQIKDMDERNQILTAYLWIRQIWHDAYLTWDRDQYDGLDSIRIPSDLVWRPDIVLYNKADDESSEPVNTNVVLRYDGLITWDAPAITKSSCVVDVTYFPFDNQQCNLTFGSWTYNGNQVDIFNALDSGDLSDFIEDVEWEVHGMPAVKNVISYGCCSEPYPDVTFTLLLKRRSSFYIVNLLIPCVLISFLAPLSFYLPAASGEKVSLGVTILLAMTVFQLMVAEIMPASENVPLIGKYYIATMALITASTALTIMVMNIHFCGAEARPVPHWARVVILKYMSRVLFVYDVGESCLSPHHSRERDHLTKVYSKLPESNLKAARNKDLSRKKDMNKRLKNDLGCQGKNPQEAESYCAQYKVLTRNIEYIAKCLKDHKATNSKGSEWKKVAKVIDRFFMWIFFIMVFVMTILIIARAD
UniProt P28867, sequence (whole entry, looked up): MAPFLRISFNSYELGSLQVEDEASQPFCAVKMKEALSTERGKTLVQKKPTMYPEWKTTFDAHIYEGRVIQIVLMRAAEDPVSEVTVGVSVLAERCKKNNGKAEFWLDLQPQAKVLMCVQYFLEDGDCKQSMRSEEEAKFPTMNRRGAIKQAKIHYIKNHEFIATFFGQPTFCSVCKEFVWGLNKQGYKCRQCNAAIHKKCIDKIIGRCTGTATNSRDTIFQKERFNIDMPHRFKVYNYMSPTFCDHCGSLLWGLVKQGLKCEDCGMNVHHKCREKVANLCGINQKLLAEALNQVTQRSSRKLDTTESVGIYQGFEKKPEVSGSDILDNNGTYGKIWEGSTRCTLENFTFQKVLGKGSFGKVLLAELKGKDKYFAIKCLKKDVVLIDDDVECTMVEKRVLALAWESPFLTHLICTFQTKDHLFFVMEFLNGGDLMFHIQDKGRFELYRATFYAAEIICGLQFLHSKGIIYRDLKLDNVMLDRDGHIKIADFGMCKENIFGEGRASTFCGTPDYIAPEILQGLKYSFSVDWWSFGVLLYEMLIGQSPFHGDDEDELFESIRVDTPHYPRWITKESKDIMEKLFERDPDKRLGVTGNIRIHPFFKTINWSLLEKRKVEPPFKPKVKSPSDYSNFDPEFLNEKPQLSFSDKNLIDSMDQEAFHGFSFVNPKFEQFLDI
UniProt P28223, sequence (whole entry, looked up): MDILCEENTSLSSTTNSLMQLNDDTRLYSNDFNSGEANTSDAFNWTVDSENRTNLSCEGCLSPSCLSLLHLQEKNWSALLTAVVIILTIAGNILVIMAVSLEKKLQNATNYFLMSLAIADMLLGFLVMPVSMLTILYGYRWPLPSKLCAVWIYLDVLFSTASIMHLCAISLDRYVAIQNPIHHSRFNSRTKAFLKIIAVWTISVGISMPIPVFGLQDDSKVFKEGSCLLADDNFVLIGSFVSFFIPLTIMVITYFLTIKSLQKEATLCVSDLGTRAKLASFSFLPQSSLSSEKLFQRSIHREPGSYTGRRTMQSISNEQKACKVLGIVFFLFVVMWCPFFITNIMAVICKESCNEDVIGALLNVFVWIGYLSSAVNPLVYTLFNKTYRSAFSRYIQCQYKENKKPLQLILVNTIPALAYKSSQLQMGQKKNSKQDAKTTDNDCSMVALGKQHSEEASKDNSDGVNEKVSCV
UniProt P21554, sequence (whole entry, looked up): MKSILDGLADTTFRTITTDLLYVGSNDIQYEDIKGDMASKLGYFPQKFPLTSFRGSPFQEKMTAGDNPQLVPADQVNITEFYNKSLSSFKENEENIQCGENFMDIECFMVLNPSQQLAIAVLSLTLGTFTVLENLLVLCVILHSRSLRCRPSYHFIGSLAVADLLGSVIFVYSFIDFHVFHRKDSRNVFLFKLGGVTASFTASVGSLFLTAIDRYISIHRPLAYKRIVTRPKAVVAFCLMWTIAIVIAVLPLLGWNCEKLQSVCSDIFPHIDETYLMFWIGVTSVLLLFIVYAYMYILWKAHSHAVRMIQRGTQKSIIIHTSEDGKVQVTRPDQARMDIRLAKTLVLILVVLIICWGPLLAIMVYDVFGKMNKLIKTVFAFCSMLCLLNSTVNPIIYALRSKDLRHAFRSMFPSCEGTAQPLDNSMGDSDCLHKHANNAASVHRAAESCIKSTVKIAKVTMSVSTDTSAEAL
UniProt P31644, sequence (whole entry, looked up): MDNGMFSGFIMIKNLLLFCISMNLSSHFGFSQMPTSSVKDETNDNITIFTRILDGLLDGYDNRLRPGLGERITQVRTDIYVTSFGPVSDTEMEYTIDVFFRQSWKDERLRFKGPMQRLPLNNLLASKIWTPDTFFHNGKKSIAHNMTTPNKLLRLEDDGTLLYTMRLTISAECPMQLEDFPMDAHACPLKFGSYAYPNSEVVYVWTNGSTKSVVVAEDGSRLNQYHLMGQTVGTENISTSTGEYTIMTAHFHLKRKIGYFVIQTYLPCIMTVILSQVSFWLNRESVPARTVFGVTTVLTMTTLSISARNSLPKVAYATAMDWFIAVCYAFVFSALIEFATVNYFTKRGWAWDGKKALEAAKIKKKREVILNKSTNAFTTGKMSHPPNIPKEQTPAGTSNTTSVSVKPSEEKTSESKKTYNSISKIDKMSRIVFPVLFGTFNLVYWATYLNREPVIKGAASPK
UniProt P35869, sequence (whole entry, looked up): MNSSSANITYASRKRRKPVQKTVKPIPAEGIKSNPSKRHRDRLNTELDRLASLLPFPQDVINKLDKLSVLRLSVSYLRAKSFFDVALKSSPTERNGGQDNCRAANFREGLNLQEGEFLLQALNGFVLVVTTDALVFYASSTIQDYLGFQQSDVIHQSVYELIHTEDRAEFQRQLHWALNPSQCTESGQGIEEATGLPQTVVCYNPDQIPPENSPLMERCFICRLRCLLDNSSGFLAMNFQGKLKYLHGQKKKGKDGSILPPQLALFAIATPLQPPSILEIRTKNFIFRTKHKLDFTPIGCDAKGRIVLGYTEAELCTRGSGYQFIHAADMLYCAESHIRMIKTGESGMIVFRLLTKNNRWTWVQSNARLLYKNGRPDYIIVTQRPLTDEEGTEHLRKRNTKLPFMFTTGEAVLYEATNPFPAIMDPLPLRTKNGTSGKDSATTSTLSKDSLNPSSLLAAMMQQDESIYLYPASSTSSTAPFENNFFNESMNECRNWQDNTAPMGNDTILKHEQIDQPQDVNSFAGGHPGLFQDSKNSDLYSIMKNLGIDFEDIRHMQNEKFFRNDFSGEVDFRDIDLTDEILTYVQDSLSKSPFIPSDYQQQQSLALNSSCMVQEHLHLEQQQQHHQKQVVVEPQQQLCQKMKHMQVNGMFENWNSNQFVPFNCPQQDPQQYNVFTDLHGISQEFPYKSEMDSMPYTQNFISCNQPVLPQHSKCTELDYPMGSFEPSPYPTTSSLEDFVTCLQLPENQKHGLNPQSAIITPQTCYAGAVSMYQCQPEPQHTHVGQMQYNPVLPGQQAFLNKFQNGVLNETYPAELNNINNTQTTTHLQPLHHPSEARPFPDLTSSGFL
UniProt P28472, sequence (whole entry, looked up): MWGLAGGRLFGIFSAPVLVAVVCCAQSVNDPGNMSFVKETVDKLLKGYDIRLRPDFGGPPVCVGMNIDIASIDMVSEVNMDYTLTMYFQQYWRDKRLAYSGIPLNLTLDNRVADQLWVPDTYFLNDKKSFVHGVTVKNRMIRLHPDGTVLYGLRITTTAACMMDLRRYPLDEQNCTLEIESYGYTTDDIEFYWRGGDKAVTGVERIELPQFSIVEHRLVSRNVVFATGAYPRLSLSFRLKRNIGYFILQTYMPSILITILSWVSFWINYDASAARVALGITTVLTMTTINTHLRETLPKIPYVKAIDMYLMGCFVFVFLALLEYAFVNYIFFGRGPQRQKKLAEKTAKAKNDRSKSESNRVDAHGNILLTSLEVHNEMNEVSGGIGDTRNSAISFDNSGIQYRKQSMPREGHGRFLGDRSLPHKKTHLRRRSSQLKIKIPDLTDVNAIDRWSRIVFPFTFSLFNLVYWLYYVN

For Oc1noc2c1CCNC2, the EC50 was 11000 nM (GABA-A receptor; alpha-5/beta-3/gamma-2 (Homo sapiens, UniProt P18507+P28472+P31644); chloride current, agonist, electrophysiology; HEK293 expressing GABAA α5β3γ2).
Cc1cc2ccccc2c2ccccc12 has an EC50 of 15800 nM (Aryl hydrocarbon receptor (AHR, Homo sapiens, UniProt P35869); reporter gene, agonist, yeast LacZ reporter; Saccharomyces cerevisiae; 18 h).
With C=C1C[C@@H]2C[C@@H]3CC(=C)C[C@H](/C=C/C(C)(C)[C@]4(O)O[C@@H](C/C(=C\C(=O)OC)[C@@H]4OC(=O)/C=C/C=C/CCC)C[C@H]([C@@H](C)O)OC(=O)C[C@H](O)C[C@H](C1)O2)O3 the EC50 was 101 ± 34 nM (Protein kinase C delta type (Prkcd, Mus musculus, UniProt P28867); mouse cells).
The EC50 of CCCC(=O)CC(=O)N[C@H]1CCOC1=O is reported as 3000 nM (expR (Pectobacterium carotovorum, UniProt Q4KS34)).
O=C(N=Nc1c(O)n(CCCCCF)c2ccccc12)c1ccccc1 has an EC50 of 186 nM (Cannabinoid receptor 1 (CNR1, Homo sapiens, UniProt P21554); agonist).
With CCC[N+]1(CC)CCN(c2ccc(C#N)cc2)CC1 the EC50 was 3700 ± 1600 nM (Neuronal acetylcholine receptor; alpha9/alpha10; peak current, agonist, two-electrode voltage clamp; Xenopus laevis oocytes, α9α10 with RAPSYN).
With CC[C@H](C)[C@H](NC(=O)[C@H](CO)NC(=O)[C@H](C)NC(=O)[C@H](Cc1ccc(OP(=O)(O)O)cc1)NC(=O)[C@H](CCC(=O)O)NC(=O)[C@@H](NC(=O)[C@H](Cc1c[nH]cn1)NC(=O)[C@H](CC(N)=O)NC(=O)[C@H](CC(N)=O)NC(=O)[C@@H]1CCCN1C(=O)[C@H](CCC(=O)O)NC(=O)[C@H](C)NC(=O)[C@H](C)NC(=O)[C@H](CCC(N)=O)NC(=O)[C@@H]1CCCN1C(=O)[C@H](C)NC(=O)[C@@H]1CCCN1C(=O)[C@H](CCCCN)NC(=O)[C@H](CCCCN)NC(=O)CNC(=O)[C@H](CCCCN)NC(=O)[C@@H]1CCCN1C(=O)[C@H](CC(C)C)NC(=O)[C@H](CC(N)=O)NC(=O)[C@H](CC(C)C)NC(=O)[C@H](CC(=O)O)NC(=O)[C@H](C)NC(=O)[C@H](Cc1ccc(OP(=O)(O)O)cc1)NC(=O)[C@@H](NC(=O)[C@@H](NC(=O)[C@@H](N)CC(=O)O)[C@@H](C)CC)[C@@H](C)O)[C@@H](C)O)C(=O)N[C@@H](CCC(N)=O)C(=O)N[C@H](C(=O)N[C@@H](CO)C(=O)O)[C@@H](C)O the EC50 was 116 ± 3 nM (Tyrosine-protein phosphatase non-receptor type 11 (PTPN11, Homo sapiens, UniProt Q06124, R111K); enzyme activity, activator; pH 7.0, 0.2% DMSO, together with: DiFMUP 100 µM, phosphopeptide).
CCCC(NCCc1cc(OC)c(C#N)cc1OC)c1ccccc1O (centres unmarked) gave an EC50 of 140 nM (5-hydroxytryptamine receptor 2A (HTR2A, Homo sapiens, UniProt P28223); agonist; cell-based).
With O=C(O)c1ccccc1Nc1cccc(C(F)(F)F)c1 the EC50 was 346000 nM (BK channel alpha subunit (Cavia porcellus, UniProt A0A286XP95); delayed rectifier K+ current, activator; dispersed vascular smooth muscle cells, guinea pig, SMA arteriole; at +40 mV).
With C[N+](C)(C)CCOC(N)=O the EC50 was 6670 nM (Neuronal acetylcholine receptor; alpha9/alpha10).
The EC50 of C[C@@H](NC(=O)c1ccc(C#Cc2cccc(F)c2)cn1)C(C)(C)O is reported as 1.5 ± 0.8 nM (Metabotropic glutamate receptor 5 (Grm5, Rattus norvegicus, UniProt P31424); calcium mobilization, positive allosteric modulator; together with: glutamate EC20).

A few entries again:
The EC50 of CCCC(=O)CC(=O)N[C@H]1CCOC1=O is reported as 3000 nM (expR (Pectobacterium carotovorum, UniProt Q4KS34)).
